Measured values collected from several papers.
Every numbered part comes from another study and shows a few of its results, in no order. Substitutions count along the parent as printed.

Block 1
Target: RNA binding protein fox-1 homolog 2, RRM domain, GST-SBP tag (RBFOX2, Homo sapiens, UniProt O43251-10, residues 100-194)
Method: RNA Bind-n-Seq
Form: RNA
Medium: in vitro
Concentration: 365 nM
Notes: natural RNA segment, single round, ends assumed
Baseline: no-protein control
Reading: higher = stronger binding
Shared flanks, not repeated: GGGAGUUCUACAGUCCGACGAUC … UGGAAUUCUCGGGUGCCAA
Residues (chain): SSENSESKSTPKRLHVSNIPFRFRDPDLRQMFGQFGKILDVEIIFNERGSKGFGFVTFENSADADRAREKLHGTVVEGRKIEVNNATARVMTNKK
Oligonucleotide | RBNS enrichment (R)
GAAGGCUGAACUUACAUAGAGGUUUUACUCAGCAAUACUUAGAUGUCUAACAGUUUAAUUGCUCCAGAGCUUUAUAGGUAUUUAAAGACUGAUUAGUAAAUAAAAUUGCC | 0.779
UAACUCUCAUUUGACAAGCAGAGAAAGAAAAGUUAAAUACCAGAUAAGCUUUUGAUUUUUGUAUUGUUUGCAUCCCCUUGCCCUCAAUAAAUAAAGUUCUUUUUUAGUUC | 4.54
ACUCCGAAUUCCAUAUGUAAUAGGAUGCAAGUCUAAGCGUUUCAUGUGGACAUAAAUGUAUCUAAAUAAAACUUUCCCUAGCACUGUGGCUGACCUCACCCUUACUUUUA | 0.536
CUGGGAAUCAGGCCGCCGAGGGCUGAGCUCCAGAGCCGCACCAUCUGCCACAAACAGAAUUCGAGACAUACUUAAUUUUGAAUUUCUCCUUGCCACGUUAAUAAAGCCAA | 0.358
AUUCAGGAAUUGCAGAGAAAUGCAUUUUCACAGAAAUCAAGAUGUUAUUUUUGUAUACUAUAUCACUUAGACAACUGUGUUUCAUUUGCUGUAAUCAGUUUUUAAAAGUC | 0.372
GCAGAAUGCUUUGAAAGAAACUAAUCAGAAUCUUGGAACAUCAUGAUCAUGCCAUUCUUAAGUAAAUCAACUAUUUUCAACACUGAAGAAAAAUGAAACAUUAUUUAGAA | 0.294
UUUGUGGUGUCAGAACUGGAAAAAGCACUUUCCCUUCGGGCAUUUCUGGAAAUGAUUAUUAAUCCACAAAGAAGAACUCUGUAAGCUUUUUCUUGAAUUGUAGCCAGUGA | 0.588
AGAAGAGAUGGGCUCAGCCUGAACUAGUUGUCUGUGAAAAGACUCCUAACGUUGCGUUAACAUAUUUGUAUAUAUGCUGGUCUCAACUUUGGAUCUAGACCUGGGGCCAG | 0.663
AAUUAUCUAAAAUUCAAUAAAAUUUUAUUCAUAUAAAAUAAGUUGUCAUUAAUUAUCAAUACUAACGAGUAUGUCAUUUUAAAACUUAGUAUUCUCUUUAAUGUUACAAG | 1.16
UUCACAUCGGAGCUGCGUGUGAAAUGGAUUCAGCAUUCCGCGCCCUUGCUUUACAAUUUUAGUCCUGUGCAGACUGUGGUGUUUUUACUGAGCGUAUUUGAAUUUUUUCA | 0.499
CCUCAGUGUCCUCACCUGUCAAGUGGGCAAGCCAUGCUGAUCCGCAGGGUAAGUUACUGGGAGUUUGCAAGACGGAGACAAGAUCCCUGGCUCUGCCGUGCUAAUCUUCA | 0.253
UGCGAGUUUUUUGUUUACUUUUCAGGUUUGUACUACAAGGUUUAAUAAUAAAAACAAAGUUUUUUGGACAUUUGUCUGUCUUGUGGAAGAUGACUGAAUGGAAUGAGCUC | 0.686

Block 2
Target: CCNA1, cyclin fold, Cln2 fusion (human)
Method: yeast growth competition, sequencing
Medium: yeast
Notes: weak parent motif
Baseline: not given
Reading: higher = stronger binding
Parent: RBL1 docking peptide (human); GSAKRRLFGEDPP; partner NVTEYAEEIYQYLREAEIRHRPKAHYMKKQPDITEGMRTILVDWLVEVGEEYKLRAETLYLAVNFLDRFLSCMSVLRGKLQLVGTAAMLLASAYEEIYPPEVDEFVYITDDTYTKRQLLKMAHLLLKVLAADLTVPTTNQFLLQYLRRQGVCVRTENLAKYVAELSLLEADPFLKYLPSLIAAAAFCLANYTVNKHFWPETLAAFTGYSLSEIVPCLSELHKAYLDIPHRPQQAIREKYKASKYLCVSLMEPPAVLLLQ
Variant | normalised enrichment score
K4E | 0.197
A3D | -0.154
D11N | 0.462
P12V | 0.676
P13K | 0.273
R5D | 0.417
L7H | 0.0923
K4C | 0.335
S2W | 0.241
R5Q | 0.208
F8D | 0.512
G1M | 0.203
R5E | 0.191
D11R | 0.28
F8E | 0.0508
D11S | 0.565
R5W | 0.000749
R6W | 0.116
S2D | 0.181
D11W | 0.428
A3Y | 0.274
P12Y | 0.698
G9W | 0.577

Block 3
Target: Interferon regulatory factor 7, full length, phosphomimetic (IRF7, Homo sapiens, UniProt Q92985, residues 1-503, S101K/S471D/S472D/S475D/S476D/S477D/S483D/S484D/S487D)
Method: protein-binding microarray
Form: double-stranded DNA, one strand shown
Medium: in vitro
Concentration: 250 nM
Notes: 60-bp whole probe
With: salmon DNA 0.4 mg/ml
Baseline: random background probes
Reading: higher = stronger binding
Shared flanks, not repeated: GCCTAGCAC … GTCTTGATTCGCTTGACGCTGCTG
Construct (chain): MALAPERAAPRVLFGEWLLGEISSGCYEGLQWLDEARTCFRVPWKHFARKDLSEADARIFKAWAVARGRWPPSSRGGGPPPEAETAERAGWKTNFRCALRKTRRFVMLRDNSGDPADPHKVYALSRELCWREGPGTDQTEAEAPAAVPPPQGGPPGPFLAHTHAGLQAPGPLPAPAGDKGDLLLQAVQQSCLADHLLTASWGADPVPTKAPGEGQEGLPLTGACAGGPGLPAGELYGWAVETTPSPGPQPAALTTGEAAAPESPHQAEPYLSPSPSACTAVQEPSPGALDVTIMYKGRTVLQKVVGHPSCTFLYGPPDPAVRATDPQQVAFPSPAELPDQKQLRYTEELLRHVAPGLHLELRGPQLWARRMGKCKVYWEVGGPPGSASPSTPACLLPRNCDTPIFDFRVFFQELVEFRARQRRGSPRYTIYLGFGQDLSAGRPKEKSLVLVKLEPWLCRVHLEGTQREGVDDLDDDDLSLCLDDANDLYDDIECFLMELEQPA
Oligonucleotide | log fluorescence
TTAGGACTAGGACTGGGTTAGTGCTAG | 0.587 z-score
TCCCTTATAAATAGCACAGGGTGCTAG | 0.591 z-score
TTAGGACTGGGGTATCTGTTAGTGCTA | -0.395 z-score
GACGGTTCCGGTTGCGGGACGTGCTAG | 1.33 z-score
TTAGGTATCGGTATAGGTTAGTGCTAG | 1.16 z-score
GACAATATCAGACTGGAGACGTGCTAG | -0.0782 z-score
TTAGGACTGCTTTTTCTTTAGTGCTAG | 0.789 z-score
GACGGTATCCTTATCCTAACGTGCTAG | 0.445 z-score
GACGATATCGACACTGGGGACGTGCTA | -0.239 z-score
TCATTTACAGGTTCTCTTACTGTGCTA | 1.28 z-score
GACGAACTGGGGTTTCGAGATGTGCTA | 2.86 z-score
GACGATATCAGTTTCGAGAGGTGCTAG | 2.06 z-score
GACGGTTTCGGTTTCGTGACGTGCTAG | 14.2 z-score
TTAGGTTTCCATATCCTTTAGTGCTAG | 4.72 z-score
TTAGATTTCAGTTTCGATTAGTGCTAG | 9.57 z-score
TTGGTTTTCATTATTGCTTCGTGCTAG | 1.48 z-score

Block 4
Target: TAR DNA-binding protein 43, full length, His tag (TARDBP, Homo sapiens, UniProt Q13148, residues 1-414)
Method: RNA Bind-n-Seq
Form: RNA
Medium: in vitro
Concentration: 20 nM
Notes: 6-mer, flanks averaged, single round
With: 150 mM LiCl
Baseline: input library
Reading: higher = stronger binding
Oligonucleotide | 6-mer enrichment (R)
AUCGAG | 0.88
CUGGGC | 0.972
GACCCG | 0.954
CUUGAA | 0.963
CCUUUG | 1.04
CCCGGC | 0.974
GGACUA | 0.993
ACGCUA | 0.839
AAGCUA | 0.827
CGUGUC | 0.979
GUCGUG | 1.14
AAUCAC | 0.829
UCCCGU | 0.965
UAGGUU | 0.991
CCUGGG | 0.991
CAUGUG | 1.15
UAUCCC | 1
CCGGGA | 0.964
CGUCCG | 0.882
AGGGGG | 1.45

Block 5
Target: Histone acetyltransferase KAT6A, both winged helices, GST fusion (KAT6A, Homo sapiens, UniProt Q92794, residues 1-181)
Method: protein binding microarray
Form: double-stranded DNA, one strand shown
Medium: in vitro
Concentration: not given
Notes: 8-mer, flanks averaged, mean of 2 arrays, mostly near background
Baseline: not given
Reading: higher = stronger binding
Construct (chain): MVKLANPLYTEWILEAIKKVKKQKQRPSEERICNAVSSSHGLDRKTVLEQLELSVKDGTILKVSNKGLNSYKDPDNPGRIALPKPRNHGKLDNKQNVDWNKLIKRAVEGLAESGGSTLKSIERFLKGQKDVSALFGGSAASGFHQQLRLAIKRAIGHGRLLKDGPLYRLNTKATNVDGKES
Oligonucleotide | E-score
TATTAGCA | -0.161
CTAGGGTC | -0.229
AAGTCGGT | -0.113
AGTTCACG | 0.0231
GATTTTCC | 0.0636
CCAAGGGG | -0.174
GCTAACTA | 0.019
CCGCCCAC | 0.161
AGCTCGGC | 0.294
GCACGTGA | -0.0692
CAAACCCC | -0.073
AGGGCCCG | 0.201
ACCGAACA | -0.00653
CGCTTGTC | 0.129
ACGATCCA | -0.14
TCTAAAAA | -0.0342
ACATAGGA | -0.109
GGCTTAAA | 0.0464
GTGATTTA | -0.0191
ACACACGA | -0.0553
GCAGCAGA | -0.134
CCACTTAG | -0.179

Block 6
Target: ABI1, truncated, D143A, DHFR fusion (Arabidopsis thaliana, UniProt P49597)
Method: DHFR PCA, dose-response
Medium: yeast
Notes: Hill fit, mean, not affinity
With: (+)-ABA, dose series
Reading: lower = more sensitive
Parent: PYL1, truncated, DHFR fusion (Arabidopsis thaliana, UniProt Q8VZS8); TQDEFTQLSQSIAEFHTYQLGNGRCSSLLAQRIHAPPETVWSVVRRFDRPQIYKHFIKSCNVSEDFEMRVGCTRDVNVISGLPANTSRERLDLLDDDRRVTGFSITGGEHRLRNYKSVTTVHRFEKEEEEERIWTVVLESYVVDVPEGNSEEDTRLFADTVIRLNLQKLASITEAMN
Variant | ABA EC50
T119F | 360 µM
V43S | 147 µM
A13N | 4.06 µM
D75I | 0.605 µM
E125P | 2.04 µM
V145H | 209 µM
L91F | 421 µM
E152F | 5.05 µM
R111H | 116 µM
H34Y | 5.05 µM
F15V | 59.2 µM
G23W | 39.2 µM
A170G | 8.75 µM
V136K | 261 µM
M68F | 4.51 µM
E130V | 2.97 µM
M68Q | 6.8 µM
A170K | 1.67 µM

Block 7
Target: Sal-like protein 4, full length isoform A (SALL4, Homo sapiens, UniProt Q9UJQ4, residues 1-1053)
Sequence of UniProt Q9UJQ4 (whole entry, looked up): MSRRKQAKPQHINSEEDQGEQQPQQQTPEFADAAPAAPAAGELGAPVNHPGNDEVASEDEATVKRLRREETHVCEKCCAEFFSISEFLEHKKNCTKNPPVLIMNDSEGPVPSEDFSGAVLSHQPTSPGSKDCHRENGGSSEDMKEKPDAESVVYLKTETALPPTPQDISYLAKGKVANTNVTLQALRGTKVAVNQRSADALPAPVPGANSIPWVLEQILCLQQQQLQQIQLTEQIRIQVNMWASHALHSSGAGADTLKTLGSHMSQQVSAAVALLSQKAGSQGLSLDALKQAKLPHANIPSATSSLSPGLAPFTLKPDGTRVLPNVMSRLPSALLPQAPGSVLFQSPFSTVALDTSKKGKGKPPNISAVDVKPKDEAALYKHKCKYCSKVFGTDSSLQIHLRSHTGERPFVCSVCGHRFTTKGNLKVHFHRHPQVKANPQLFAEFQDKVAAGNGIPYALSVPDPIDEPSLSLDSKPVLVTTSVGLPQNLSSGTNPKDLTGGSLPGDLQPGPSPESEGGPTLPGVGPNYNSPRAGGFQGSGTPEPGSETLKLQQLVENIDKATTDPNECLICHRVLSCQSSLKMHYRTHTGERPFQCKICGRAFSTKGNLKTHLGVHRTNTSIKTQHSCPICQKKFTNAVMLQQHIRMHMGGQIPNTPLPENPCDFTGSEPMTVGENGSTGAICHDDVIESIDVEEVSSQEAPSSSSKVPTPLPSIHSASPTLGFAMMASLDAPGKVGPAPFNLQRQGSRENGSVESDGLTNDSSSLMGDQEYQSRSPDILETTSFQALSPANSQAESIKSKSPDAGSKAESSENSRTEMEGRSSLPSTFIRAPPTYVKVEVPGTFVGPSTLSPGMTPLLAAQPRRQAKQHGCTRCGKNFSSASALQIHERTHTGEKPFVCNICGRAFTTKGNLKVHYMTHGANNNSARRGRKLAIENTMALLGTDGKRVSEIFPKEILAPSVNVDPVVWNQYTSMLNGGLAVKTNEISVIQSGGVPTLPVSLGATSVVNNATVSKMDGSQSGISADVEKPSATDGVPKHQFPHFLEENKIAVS
Method: universal PBM
Form: double-stranded DNA, one strand shown
Medium: in vitro
Concentration: 600 nM
Notes: 8-mer, flanks averaged, mean of replicates
Reading: higher = stronger binding
Oligonucleotide | E-score
ATCGATCC | -0.0791
CAACGGTG | -0.354
GCATTGGA | 0.12
ATACTGGG | -0.05
CCCGACGC | -0.404
CCCAAAAG | -0.141
CCGACACA | -0.147
ACGAACCA | 0.0784
AAAAAAGA | 0.198
ATCGAGAG | -0.00195
CCGTAAAC | 0.0192
CGTACTCC | -0.205
GGAGGGCC | -0.357
CGAGGACG | -0.206
CCATAATC | 0.232
AGTCGCGC | -0.263
ACTCGTTA | 0.118
CACACACA | -0.0173
AGTGCGCG | -0.3
GGCCCCAA | -0.214
AGTGGCAC | -0.274
GCGGATCA | -0.193
CGTTCTAC | -0.0525
AGTGTCAA | 0.012
ATAGAGCG | 0.0387

Excerpt of the above (block 6):
Variant | ABA EC50
A170G | 8.75 µM
A170K | 1.67 µM
E125P | 2.04 µM
V43S | 147 µM
F15V | 59.2 µM
H34Y | 5.05 µM
A13N | 4.06 µM
M68F | 4.51 µM
D75I | 0.605 µM
E152F | 5.05 µM
M68Q | 6.8 µM
